Published values pooled from the literature.
A part holds a random share of what one study measured. Positions count from the first letter of the parent shown.

Series 1
Target: Ras GTPase-activating protein-binding protein 1, full length (G3BP1, Homo sapiens, UniProt Q13283)
Chain of UniProt Q13283 (whole entry, looked up): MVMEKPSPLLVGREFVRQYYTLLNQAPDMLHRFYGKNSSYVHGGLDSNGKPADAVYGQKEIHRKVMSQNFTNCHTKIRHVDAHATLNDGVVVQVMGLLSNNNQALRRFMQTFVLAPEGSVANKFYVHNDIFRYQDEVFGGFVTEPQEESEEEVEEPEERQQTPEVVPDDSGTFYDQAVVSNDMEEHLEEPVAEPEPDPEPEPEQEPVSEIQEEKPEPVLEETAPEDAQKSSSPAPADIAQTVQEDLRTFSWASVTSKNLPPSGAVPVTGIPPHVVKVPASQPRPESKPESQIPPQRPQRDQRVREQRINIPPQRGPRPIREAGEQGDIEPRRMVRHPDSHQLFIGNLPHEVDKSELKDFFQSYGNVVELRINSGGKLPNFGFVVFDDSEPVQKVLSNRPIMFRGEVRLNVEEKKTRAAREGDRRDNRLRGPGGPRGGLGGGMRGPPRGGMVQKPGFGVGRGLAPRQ
Technique: RNA Bind-n-Seq
Form: RNA
Medium: in vitro
Concentration: 200 nM
Notes: whole 134-nt RNA, ends assumed
With: 150 mM LiCl
Baseline: input library
Reading: higher = stronger binding
Quantity: log2 enrichment
Each molecule: 7-deaza-guanosine replaces G
Constant ends, left off below: GGGAGUUCUACAGUCCGACGAUC … UGGAAUUCUCGGGUGUCAAGG
AAGUCCUGUGCUACACAUCGUAUGUACCGAAUCGGGUUUGGGUUUUUUUGGGUGGGAAAGUAUUAUGUUACGCCGUUCGGAUCUGCACUU: 0.202
AGUCCUGUGCUACACAUCGUAUGUACCGAAUCGGGGUGGGGUUUUUGGGGAAAGGGGAAAGUAUUAUGUUACGCCGUUCGGAUCUGCACU: 0.424
CACAGACAACACGCACCCACACAGACACAGAGGGAAGGGGUUGGGGUGGGGACAGGGUGCACAGCAGGGCGGGGUAGGACCCCAGCCCCU: 0.735
ACCAUGCAGGUGGGCAUCUUUGGGAAGUGGGGCAAGGGGGGGAUAGGGAGGGGGGUAACACUUUGGGAACAGGUGGUCCUAGGUCGUUUC: 0.0114
AAGUCCUGUGCUACACAUCGUAUGUACCGAAUCAAACCCAAAUUUAAAUUUUUAAAAAAGUAUUAUGUUACGCCGUUCGGAUCUGCACUU: -0.0362
UGGGAGGUGGAUUUUCUUUAUUUUUUUAGCUCAUUUCCAGGGGUGGGAAUUUUUUUUUAAUAUGUGUCAUGAAUAAAGUUGUUUUUGAAA: -0.0293
CAAGUCCUGUGCUACACAUCGUAUGUACCGAAUCGGGGAAAGGAAAGGGGAAAGGAAAGUAUUAUGUUACGCCGUUCGGAUCUGCACUUC: -0.285
GCAGGAAGUAAAAACAAAUGGAAAUGCUACGGAUAGUGGCAGGGGUGGGGGUUGCUAAGGAAAGGGUGGGAUGGGAGUGGGUAAAGAGUU: 0.227

Series 2
Target: CCNE2, cyclin fold, Cln2 fusion (human)
Technique: yeast growth competition, sequencing
Medium: yeast
Notes: strong parent motif
Baseline: not given
Reading: higher = stronger binding
Quantity: normalised enrichment score
Starting sequence: REPIN1 docking peptide (human); QSFRGWVALVLHL
Q1A: 0.638
R4A: 0.142
L9A: 0.532
G5A: 1.42
S2A: 0.889
L13A: 1.19

Series 3
Target: ABI1, truncated, D143A, DHFR fusion (Arabidopsis thaliana)
Technique: DHFR PCA, deep sequencing
Medium: yeast
Notes: methotrexate growth selection, single substitutions
With: (+)-ABA 1.4 µM
Baseline: wild-type fitted maximum
Reading: higher = stronger binding
Quantity: relative binding score
Starting sequence: PYL1, truncated, DHFR fusion (Arabidopsis thaliana); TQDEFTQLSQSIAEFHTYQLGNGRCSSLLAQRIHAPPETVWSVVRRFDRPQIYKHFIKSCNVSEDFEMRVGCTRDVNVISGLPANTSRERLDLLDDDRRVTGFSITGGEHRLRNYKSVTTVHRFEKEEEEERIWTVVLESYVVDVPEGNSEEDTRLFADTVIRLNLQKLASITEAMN; partner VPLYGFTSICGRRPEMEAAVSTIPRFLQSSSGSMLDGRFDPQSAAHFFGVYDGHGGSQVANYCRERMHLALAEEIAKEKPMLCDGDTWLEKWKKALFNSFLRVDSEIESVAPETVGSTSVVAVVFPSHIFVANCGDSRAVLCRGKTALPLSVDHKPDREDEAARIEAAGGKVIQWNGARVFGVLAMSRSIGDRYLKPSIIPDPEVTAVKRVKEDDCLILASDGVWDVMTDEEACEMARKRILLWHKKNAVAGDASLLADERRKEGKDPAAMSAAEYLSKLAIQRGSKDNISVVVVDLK
V44G: -13.6%
V121L: 21.2%
N114W: 4.35%
A158S: -9.79%
H110A: 16%
R99C: 39.3%
S27N: 50.7%
E151C: 47.5%
D95H: 2.8%
I79A: 32.1%
L8N: -30.8%
F103P: -5.74%
D96L: -2.03%
S63M: 27.1%

Series 4
Target: RNA binding protein fox-1 homolog 2, RRM domain, GST-SBP tag (RBFOX2, Homo sapiens, UniProt O43251-10, residues 100-194)
Technique: RNA Bind-n-Seq
Form: RNA
Medium: in vitro
Concentration: 365 nM
Notes: natural RNA segment, single round, ends assumed
Baseline: no-protein control
Reading: higher = stronger binding
Quantity: RBNS enrichment (R)
Constant ends, left off below: GGGAGUUCUACAGUCCGACGAUC … UGGAAUUCUCGGGUGCCAA
Residues (chain): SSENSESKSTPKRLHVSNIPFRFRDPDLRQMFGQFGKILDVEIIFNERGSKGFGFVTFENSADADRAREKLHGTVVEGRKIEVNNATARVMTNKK
ACACGUGGUGCUGCUGCCCUGGGUACAGCCCACCAACACCCAGGGCCAGCCAGUAUCACCAGACCUCUGCUGGACCUAGUCAAGAAGCCCAGUUAACAUGUAGAGCAUGG: 1.1
UUUAUCACAUUUUAAUACCACAGCACUUAUAAUGAUGUCACUACAUAUAGAAGCUCAAAGUUAAGGGAUUUGCUGAAGACUGUAAAGUUAAUGGAAGAAUUGAGACAAAA: 0.376
CUGAGAGUGGACAGAGGAGAGGAGAGGGUCAGAAAUGAACGCUCUUCUAUUUCUUGUCAUUACCAAGCCAAUUACUUUUGCCAAAUUUUUCUGUGAUCUGCCCUGAUUAA: 0.242
UCAGAAAUAGCCUCAGAAACUGAGGGUUUCAUAGUUGGAAGGAAGAAAUGGUCAUAAACACAAAUCAAAAUAUAGUAUUAUAGAUCAUAGAACCAAGUCACGUAACCAGG: 0.364
UGAUUCAAUAUUAAUCCUCGGGUCUUGAACUGGACAUCCUAAUGAUGCAAUUAUGUAACCAUUAAGCUGAUUCCGAGGCUGGCAGGCUAGGGCCGCCCCUCUGGAAAGGU: 0.37
UAUUUAAAUGAAAUUUAAUUUGAAAAUAGAAAAUAAAAUUAGGUAAAUAUGACUGGCAACCUGAAUUUGAGUUGGGAUUCUUUGUGUAUUUUUCCCCCUUGAGGUUAUUG: 0.719
GUUAUCAGGGAAGCUUGCUCUGCCAGGCUGCUCCAGGAUGCCAGCUUGUCUCUGACUCGGUUGAGGUCCAUGCUCUGACUUUCUGCACCCUCGUGCUAGGCGAUUCGUGU: 0.52
AAUGAAUGGCACAGGUGAGGGCCUGUGCCACGCCCCACACACCUCAGGGCCAAGCGGGGGCGUGGCUGGCCCUUCAGGUCAGGCCAGUGGGCCUGGUAGCACAUGUCUGU: 0.318

For quick reference, copied from above (series 3):
R99C: 39.3%
N114W: 4.35%
I79A: 32.1%
D95H: 2.8%
